Results from different studies.
Every numbered part comes from another study and shows a few of its results, in no order.

Block 1 — method: competition protein-binding microarray; form: double-stranded DNA, one strand shown; matrix: in vitro; concentration: 2 µM; added: Pho4 competitor, 0.05 µM; reading: higher = stronger binding; measurement: fluorescence intensity; shared flanks, not repeated: … GTCTTGATTCGCTTGACGCTGCTG
Target: Centromere-binding protein 1, full length, His-tagged (CBF1, Saccharomyces cerevisiae, UniProt P17106, residues 1-351)
Sequence of UniProt P17106 (whole entry, looked up): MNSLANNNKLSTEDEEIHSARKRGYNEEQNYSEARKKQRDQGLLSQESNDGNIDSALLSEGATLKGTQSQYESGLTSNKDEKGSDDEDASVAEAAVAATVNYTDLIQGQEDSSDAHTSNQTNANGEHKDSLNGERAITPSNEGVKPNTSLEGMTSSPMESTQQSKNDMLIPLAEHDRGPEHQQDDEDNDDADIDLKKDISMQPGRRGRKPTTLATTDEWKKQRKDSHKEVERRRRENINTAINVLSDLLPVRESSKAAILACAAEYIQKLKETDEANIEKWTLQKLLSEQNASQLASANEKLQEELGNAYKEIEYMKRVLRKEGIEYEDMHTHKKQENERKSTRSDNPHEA
Setting: whole 60-bp probe, lowest competitor level
Oligonucleotide = CATACCCAACCTTGTCTAGTGGGTGAAGATATTTGT; result = 78.9 a.u.
Oligonucleotide = TACATCTTTGGCAGCCACGTTTCCCAATACATGGAA; result = 99.9 a.u.
Oligonucleotide = CGGGGTTAAGTTTAGCACGTGTTTTGCTTGCAGCAG; result = 1690 a.u.
Oligonucleotide = AAGCGCAAGTGATGGAATGTGATGCTTAAAGGCTAT; result = 100 a.u.
Oligonucleotide = TTATCATTGAAAATTCACGTGATGGCAATATTCCGG; result = 4660 a.u.
Oligonucleotide = AAATTACTAAGTTTTCACGTGATGTACCCCGTATGA; result = 3520 a.u.
Oligonucleotide = ACCATTGTAGTTATCAACGTGAGCCATAATAGGTTC; result = 310 a.u.
Oligonucleotide = CGCCAGCAGTGAAACCTCGTGGGACAAAGCCGGTTC; result = 73.7 a.u.
Oligonucleotide = CCGCCCTTCAAAGTCCTCGTGCTGTGTATCAATTCC; result = 137 a.u.
Oligonucleotide = ATTCATGTTTGGCTACTCGTGCTTTCTTCGAAGAAT; result = 107 a.u.
Oligonucleotide = CTAACGAAGGTTTGGGTAGTGGGTGACAAGCCAAGT; result = 66.5 a.u.
Oligonucleotide = TGAAGAGTACTTACTGATGTGATATTCGACAGGATC; result = 76.3 a.u.
Oligonucleotide = GCTGCATAAAACAACCATGTGGAGTTTTTACTGTAT; result = 111 a.u.
Oligonucleotide = AGTGGTTGCGTTTGCCACGTACGAAAAGTTGTTACC; result = 73.3 a.u.

Block 2 — method: protein-binding microarray; form: double-stranded DNA, one strand shown; matrix: in vitro; concentration: 940 nM top; setting: 60-bp whole probe; added: salmon DNA 0.4 mg/ml; relative to: random background probes; reading: higher = stronger binding; measurement: fitted relative affinity; shared flanks, not repeated: GCCTAGCAC … GTCTTGATTCGCTTGACGCTGCTG
Target: Interferon regulatory factor 5, full length, phosphomimetic (IRF5, Homo sapiens, UniProt Q13568-2, residues 1-514, S451D/S453D/S456D/S462D)
Oligonucleotide = TTAGGTCTCCTTCTGCTTTAGTGCTAG; result = 0.532 z-score
Oligonucleotide = TTCGGTATCCTTATCCTTTAGTGCTAG; result = 0.776 z-score
Oligonucleotide = CTCTACATGTGTTTAAAAAGGTGCTAG; result = -0.467 z-score
Oligonucleotide = TCACCTTCCCCTCTAGGACTGTGCTAG; result = 0.434 z-score
Oligonucleotide = TTAGGTATCCTTATCCTTTCGTGCTAG; result = 0.441 z-score
Oligonucleotide = CTTAGCTTGGGTCTGTGCCTGTGCTAG; result = -0.668 z-score
Oligonucleotide = TCACATCTCTGCTCCTTACTGTGCTAG; result = 1.23 z-score
Oligonucleotide = GCCGGTCTCCTTATCCTGACGTGCTAG; result = 0.317 z-score
Oligonucleotide = TGAGATTCCAGTTTCGATTAGTGCTAG; result = 8.24 z-score
Oligonucleotide = GACGAACTGGGGTTTCGAGACGTGCTA; result = 1.88 z-score
Oligonucleotide = TTGGGTATCGACTATCGGTTAGTGCTA; result = 4.56 z-score
Oligonucleotide = TCATTTAGTAGTTTCTAACTGTGCTAG; result = 0.086 z-score

Block 3 — method: protein binding microarray; form: double-stranded DNA, one strand shown; matrix: in vitro; concentration: not given; relative to: not given; reading: higher = stronger binding; measurement: E-score
Target: Histone acetyltransferase KAT6A, winged helix 2, GST fusion (KAT6A, Homo sapiens, UniProt Q92794, residues 85-181)
Setting: 8-mer, flanks averaged, mean of 2 arrays, mostly near background
Target sequence (chain): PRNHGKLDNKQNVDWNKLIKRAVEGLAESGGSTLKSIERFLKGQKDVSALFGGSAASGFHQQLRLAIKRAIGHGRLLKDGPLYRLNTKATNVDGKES
Oligonucleotide = AATTTGCG; result = 0.0418
Oligonucleotide = AATAGAAG; result = -0.189
Oligonucleotide = ACTGTTAA; result = -0.00119
Oligonucleotide = TCCGGTCA; result = -0.047
Oligonucleotide = ATTAGAGC; result = 0.0893
Oligonucleotide = CAGACTGG; result = -0.0348
Oligonucleotide = ATCCAAAC; result = 0.052
Oligonucleotide = ATTTTGAC; result = -0.0285
Oligonucleotide = AACGTAGT; result = 0.0933
Oligonucleotide = AGTCGCGC; result = 0.166
Oligonucleotide = CCTCGTTA; result = 0.0482

Single results of other studies
Substance = PhoQ, residues 284 288 289 292 302 303 NLALSC; target = PhoP, residues 12 14 15 18 19 AQCLL (Escherichia coli, UniProt P23836); assay = Sort-seq, item: YFP reporter; system = E. coli; conditions = PhoQ-PhoP variant library, added: 10 µM Mg2+; scale = relative to: high Mg2+ state, higher = stronger signaling; measurement = fold induction; result = 0.646

For quick reference, copied from above (block 2):
Oligonucleotide = TTAGGTCTCCTTCTGCTTTAGTGCTAG; result = 0.532 z-score
Oligonucleotide = TTCGGTATCCTTATCCTTTAGTGCTAG; result = 0.776 z-score
Oligonucleotide = CTCTACATGTGTTTAAAAAGGTGCTAG; result = -0.467 z-score
